Measurements pooled from the literature.
Lines come from different studies, so protocols differ. Numbers after ± are the reported error.
Organism: Escherichia coli

Compound	assay	test system	conditions	scale	MIC
CC[C@H](C)[C@H](NC(=O)[C@H](Cc1c[nH]c2ccccc12)NC(=O)[C@@H](NC(=O)[C@@H](NC(=O)[C@@H](NC(=O)[C@H](CCCNC(=N)N)NC(=O)[C@@H](N)CCCNC(=N)N)[C@@H](C)CC)[C@@H](C)O)[C@@H](C)CC)C(=O)N[C@H](C(=O)N[C@H](C(=O)N[C@@H](CCCNC(=N)N)C(=O)N[C@@H](CCCNC(=N)N)C(N)=O)[C@@H](C)CC)[C@@H](C)O	broth microdilution	25922, Mueller-Hinton broth	24 h, 37 °C, lowest concentration, 95% inhibition, with: BSA	–	32 µM
C[C@@H](O)[C@H]1C(=O)N2C(C(=O)O)=C(SCCN=CN)C[C@H]12	–	NCCP 16284 carbapenem-resistant, Mueller-Hinton broth	16 h, 37 °C	–	> 128 µM
O=[N+]([O-])c1ccc(O)c2ncccc12	broth microdilution	–	carbapenem-resistant clinical isolate	–	8 µg/mL
CC1(C)SC2C(NC(=O)C(NC(=O)C3=C(O)C(Cc4ccc(O)cc4)NC3=O)c3ccccc3)C(=O)N2C1C(=O)O (centres unmarked)	broth microdilution	Keio mutant JW2142-1	–	–	50 µg/mL
CC[C@H](C)[C@H](NC(=O)[C@H](CCCCN)NC(=O)[C@H](CCCCN)NC(=O)CNC(=O)[C@H](CCCCN)NC(=O)[C@H](CC(C)C)NC(=O)[C@H](CCCCN)NC(=O)[C@H](CCCNC(=N)N)NC(=O)[C@@H](NC(=O)[C@H](CC(C)C)NC(=O)[C@H](CCCNC(=N)N)NC(=O)[C@@H](N)CCCNC(=N)N)[C@@H](C)CC)C(=O)N[C@@H](Cc1ccc(O)cc1)C(=O)N[C@@H](CC(C)C)C(=O)N[C@@H](Cc1ccc(O)cc1)C(=O)N[C@@H](Cc1ccccc1)C(=O)N[C@@H](CCCCN)C(=O)N[C@@H](CC(C)C)C(=O)N[C@@H](CCC(N)=O)C(=O)N[C@@H](CC(C)C)C(=O)N[C@@H](CC(C)C)C(=O)N[C@@H](CCCCN)C(=O)N[C@@H](CCCCN)C(N)=O	broth microdilution	KCTC 1682, Mueller-Hinton broth	no added salt	–	8 µM
CC(C)C1NC(=O)C(C(=O)NC(C(=O)NC2C(=O)N3C2SC(C)(C)C3C(=O)O)c2ccccc2)=C1O (centres unmarked)	broth microdilution	Keio mutant JW5195-1	18 h	–	50 µg/mL
CC[C@H](C)[C@H](N)C(=O)N[C@@H](CC(C)C)C(=O)NCC(=O)N[C@H](CCCNC(=N)N)C(=O)N[C@H](C(=O)N[C@@H](Cc1c[nH]c2ccccc12)C(=O)N[C@@H](CCCCN)C(=O)NCC(=O)N[C@H](C(=O)N[C@@H](CCCCN)C(=O)N[C@@H](CC(=O)O)C(=O)N[C@H](C(=O)N[C@@H](CC(C)C)C(N)=O)[C@@H](C)CC)[C@@H](C)CC)[C@@H](C)CC	broth microdilution	ATCC 25922	concentration not given, with: BSA	–	6.25 µM
CCCCCCC/C=C/C(=O)N1C(=O)/C(=C(\O)c2ccc(F)cc2)C(=O)C1CC(C)C (centres unmarked)	–	K12 ΔtolC	–	–	1.56 µg/mL
CC[C@H](C)[C@H](NC(=O)CNC(=O)[C@H](CC(=O)O)NC(=O)[C@H](CCCNC(=N)N)NC(=O)[C@@H](NC(=O)[C@H](CC(N)=O)NC(=O)[C@H](CCCNC(=N)N)NC(=O)CNC(=O)[C@@H](NC(=O)[C@H](CCCCN)NC(=O)[C@H](CCC(=O)O)NC(=O)[C@@H](NC(=O)[C@H](CCCCN)NC(=O)[C@H](CCCCN)NC(=O)[C@H](Cc1ccccc1)NC(=O)[C@@H](NC(=O)[C@H](CCCCN)NC(=O)[C@H](Cc1c[nH]c2ccccc12)NC(=O)[C@@H](N)CCCNC(=N)N)[C@@H](C)CC)[C@@H](C)CC)C(C)C)C(C)C)C(=O)N[C@H](C(=O)N[C@@H](CCCCN)C(=O)N[C@@H](C)C(=O)NCC(=O)NCC(=O)N[C@@H](C)C(=O)N[C@H](C(=O)N[C@@H](C)C(=O)N[C@H](C(=O)N[C@H](C(=O)NCC(=O)N[C@@H](CCC(N)=O)C(=O)N[C@@H](C)C(=O)N[C@@H](C)C(=O)N[C@H](C(=O)N[C@H](C(=O)N[C@H](C(=O)N[C@@H](CCCCN)C(N)=O)C(C)C)C(C)C)[C@@H](C)O)C(C)C)C(C)C)C(C)C)[C@@H](C)CC	–	K1 ATCC 700973, Mueller-Hinton broth	16 h, 37 °C	growth inhibition over 99%	1 µM
CCCCCC(=O)N[C@@H](CCCNC(=N)N)C(=O)N[C@@H](CCCNC(=N)N)C(=O)N[C@@H](CCCNC(=N)N)C(=O)N[C@@H](CCCNC(=N)N)C(=O)N[C@H](C(=O)N[C@@H](CC(C)C)C(=O)N[C@H](C(=O)N[C@@H](CCCNC(=N)N)C(=O)N[C@@H](CCCNC(=N)N)C(=O)N[C@H](C(=O)N[C@@H](CC(C)C)C(=O)N[C@@H](CCCNC(=N)N)C(=O)N[C@@H](CC(C)C)C(=O)N[C@@H](CCCNC(=N)N)C(=O)N[C@@H](CO)C(=O)N[C@@H](CO)C(=O)N[C@@H](C)C(=O)N[C@@H](Cc1ccc(O)cc1)C(N)=O)C(C)C)[C@@H](C)CC)[C@@H](C)CC	broth microdilution	ATCC 25922	highest value reported	–	16 µM
C[C@@H](O)[C@H]1C(=O)N2C(C(=O)O)=C(S[C@@H]3CN[C@H](C(=O)N(C)C)C3)[C@H](C)[C@H]12	–	NDM-1 producing	compound alone	–	167 µM
CN(C)c1cc(NC(=O)CNC(C)(C)C)c(O)c2c1C[C@H]1C[C@H]3[C@H](N(C)C)C(O)=C(C(N)=O)C(=O)[C@@]3(O)C(O)=C1C2=O	–	DH5α cloned blaKPC-144	–	–	0.125 µg/mL
CC[C@H](C)[C@H](NC(=O)[C@H](CC(C)C)NC(=O)[C@H](CCCCN)NC(=O)[C@@H](NC(=O)[C@H](C)NC(=O)[C@H](CCC(=O)O)NC(=O)[C@H](Cc1c[nH]cn1)NC(=O)[C@@H](NC(=O)[C@H](CCCCN)NC(=O)[C@H](CCC(N)=O)NC(=O)[C@H](Cc1ccccc1)NC(=O)[C@@H](NC(=O)[C@H](CCCCN)NC(=O)[C@H](CCCCN)NC(=O)[C@H](CC(C)C)NC(=O)[C@H](C)N)C(C)C)[C@@H](C)CC)[C@@H](C)CC)C(N)=O	broth microdilution	CCARM 1238 resistant	18 h, 37 °C	–	4 µM
CC[C@H](C)[C@H](NC(=O)[C@H](CC(C)C)NC(=O)[C@H](CCCNC(=N)N)NC(=O)[C@@H](N)CCCNC(=N)N)C(=O)N[C@@H](CCCNC(=N)N)C(=O)N[C@H](C(=O)N[C@@H](CC(=O)O)C(=O)N[C@H](C(=O)NCC(=O)N1CCC[C@H]1C(=O)N[C@H](C(=O)N[C@H](C(=O)N[C@@H](Cc1ccc(O)cc1)C(=O)N[C@@H](CC(=O)O)C(=O)N[C@@H](Cc1ccc(O)cc1)C(=O)N[C@@H](Cc1ccccc1)C(=O)N[C@@H](CCCCN)C(=O)N[C@@H](CC(=O)O)C(=O)N[C@@H](CCC(N)=O)C(=O)N[C@@H](CC(C)C)C(=O)N[C@@H](CC(C)C)C(=O)N[C@@H](CCCCN)C(=O)N[C@@H](CCCCN)C(N)=O)[C@@H](C)CC)[C@@H](C)CC)[C@@H](C)O)[C@@H](C)O	broth microdilution	KCTC 1682, Mueller-Hinton broth	24 h, 37 °C	–	> 128 µM
CC[C@H](C)[C@H](NC(=O)[C@H](CCCNC(=N)N)NC(=O)[C@H](CCC(N)=O)NC(=O)[C@@H](NC(=O)[C@@H](NC(=O)[C@H](CCCNC(=N)N)NC(=O)[C@@H](N)CCCCN)[C@@H](C)CC)C(C)C)C(=O)N[C@@H](C)C(=O)N[C@@H](CC(=O)O)C(=O)N[C@@H](Cc1ccccc1)C(=O)N[C@@H](CC(C)C)C(=O)N[C@@H](CCCNC(=N)N)C(N)=O	broth microdilution	K12	16 h, 37 °C	–	112 ± 44 µM
CC1(C)S[C@@H]2[C@H](NC(=O)C(C(=O)O)c3ccccc3)C(=O)N2[C@H]1C(=O)O (some centres unmarked)	–	BL21(DE3) wild type	–	–	< 1.75 µg/mL
CC[C@H](C)[C@H](NC(=O)[C@H](CO)NC(=O)CNC(=O)[C@H](CCCCN)NC(=O)[C@@H](NC(=O)[C@H](CC(N)=O)NC(=O)[C@H](Cc1ccccc1)NC(=O)[C@H](CC(N)=O)NC(=O)[C@@H](NC(=O)[C@H](CCCNC(=N)N)NC(=O)[C@@H]1CCCN1C(=O)[C@H](CCCNC(=N)N)NC(=O)[C@@H](NC(=O)[C@H](CCCNC(=N)N)NC(=O)[C@H](CCCNC(=N)N)NC(=O)[C@@H](NC(=O)[C@H](CCCNC(=N)N)NC(=O)[C@H](CO)NC(=O)[C@H](CC(C)C)NC(=O)[C@H](Cc1ccccc1)NC(=O)[C@H](CCCNC(=N)N)NC(=O)CNC(=O)[C@H](Cc1ccccc1)NC(=O)[C@H](CCCNC(=N)N)NC(=O)CNC(=O)[C@H](CCCNC(=N)N)NC(=O)[C@H](CCC(N)=O)NC(=O)[C@@H](NC(=O)[C@@H](N)CC(C)C)C(C)C)[C@@H](C)CC)[C@@H](C)CC)[C@@H](C)CC)[C@@H](C)CC)C(=O)O	broth microdilution	K88, Mueller-Hinton broth	37 °C	–	2.49 µM
NC(=O)[C@@H]1CC[C@@H]2CN1C(=O)N2OS(=O)(=O)O	broth microdilution	13-1, NDM-positive	compound alone	–	16 µg/mL
Cn1cc(NC(=O)C(CC(N)=O)NC(=O)c2ccc(NC(=O)c3ccc(C#N)cc3)cc2)cc1-c1nc2ccc(C(=O)Nc3ccc(C(=O)O)cc3)c(O)c2[nH]1 (centres unmarked)	–	K12 ΔtolC	–	–	> 64 µg/mL
CC(C)Oc1c(NC(=O)c2ccc(N3C(=O)C[C@H](NC(=O)c4ccc(NC(=O)c5ccc(C#N)cc5)cc4)C3=O)cc2)ccc(C(=O)N/N=C/c2ccnn2C)c1O	–	BW25113	18 h, 37 °C, dark-adapted state	–	0.1 µg/mL

Some of these lines once more:
Compound	assay	test system	conditions	scale	MIC
C[C@@H](O)[C@H]1C(=O)N2C(C(=O)O)=C(SCCN=CN)C[C@H]12	–	NCCP 16284 carbapenem-resistant, Mueller-Hinton broth	16 h, 37 °C	–	> 128 µM
